Assay results from different studies.
Every numbered part comes from another study and shows a few of its results, in no order. Substitutions count along the parent as printed.

Block 1
Target: Interferon regulatory factor 5, full length, phosphomimetic (IRF5, Homo sapiens, UniProt Q13568-2, residues 1-514, K96S/S451D/S453D/S456D/S462D)
Technique: protein-binding microarray
Molecule type: double-stranded DNA, one strand shown
Matrix: in vitro
Concentration: 250 nM
Setting: 60-bp whole probe
Added: salmon DNA 0.4 mg/ml
Baseline: random background probes
Direction: higher = stronger binding
Constant ends, left off below: GCCTAGCAC … GTCTTGATTCGCTTGACGCTGCTG
| Oligonucleotide | log fluorescence |
| --- | --- |
| TTAGATGCCAGTTTCGATTAGTGCTAG | 9.77 z-score |
| TTTACTTTCTGAATGCCCTCGTGCTAG | 5.25 z-score |
| TCAATTTTTACATTATTACTGTGCTAG | 1.34 z-score |
| GTCGGTCTCCTACTGCTGACGTGCTAG | -0.103 z-score |
| TTATGTTTCGGTCTCGGTTAGTGCTAG | 10.5 z-score |
| TTAGGTTTCGGTATAGGTTAGTGCTAG | 10.8 z-score |
| GACGGTTTCGGGTTTGGGGACGTGCTA | 6.83 z-score |
| GACGATATCGGGACTGGAGGCGTGCTA | 0.769 z-score |
| TTAGGTATCGGACGGGGTTAGTGCTAG | 1.29 z-score |
| TTACGTTTCGGGTTTCGGTTAGTGCTA | 10.1 z-score |
| TTAGATATCAATTTCGATTAGTGCTAG | 7.96 z-score |
| TCAAATTAGAATTTAAAACTGTGCTAG | 0.41 z-score |
| GACGGACTGGGGCTGGGGACGTGCTAG | -0.327 z-score |
| GACTGTATCGGTTTCGGGACGTGCTAG | 8.7 z-score |
| GACGGAATCGGTTTCGGGACGTGCTAG | 5.01 z-score |
| GACGAACTGCTTTTCCTGACGTGCTAG | 0.211 z-score |
| TATCAGGGCATCCCCTTGAAGTGCTAG | 1.28 z-score |
| CCTTCCATCACTTTCCACTTGTGCTAG | 1.76 z-score |
| TCAATTCTCGGGACTCACACTGTGCTA | 0.384 z-score |
| TCAATTCCTGATCTCTGACTGTGCTAG | 0.108 z-score |
| TCATCTTTCCTCACCATACTGTGCTAG | 0.956 z-score |
| TTAGAACTGTGGTATCGATTAGTGCTA | 4.52 z-score |
| GACGATTTCAGACTGGGGACGTGCTAG | 0.242 z-score |
| TTAGGTATCGGTTTCGATTAGTGCTAG | 10.9 z-score |
| TCAGTTTTGAGCTCTGTCACTGTGCTA | 0.425 z-score |

Block 2
Target: ABI1, truncated, D143A, DHFR fusion (Arabidopsis thaliana)
Technique: DHFR PCA, deep sequencing
Matrix: yeast
Setting: methotrexate growth selection, single substitutions
Added: (+)-ABA 4.8 µM
Baseline: wild-type fitted maximum
Direction: higher = stronger binding
Starting sequence: PYL1, truncated, DHFR fusion (Arabidopsis thaliana); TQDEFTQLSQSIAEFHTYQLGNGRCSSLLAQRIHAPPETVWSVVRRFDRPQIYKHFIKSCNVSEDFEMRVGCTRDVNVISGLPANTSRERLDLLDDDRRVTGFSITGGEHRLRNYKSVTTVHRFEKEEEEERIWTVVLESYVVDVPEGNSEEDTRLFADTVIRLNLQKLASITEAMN; partner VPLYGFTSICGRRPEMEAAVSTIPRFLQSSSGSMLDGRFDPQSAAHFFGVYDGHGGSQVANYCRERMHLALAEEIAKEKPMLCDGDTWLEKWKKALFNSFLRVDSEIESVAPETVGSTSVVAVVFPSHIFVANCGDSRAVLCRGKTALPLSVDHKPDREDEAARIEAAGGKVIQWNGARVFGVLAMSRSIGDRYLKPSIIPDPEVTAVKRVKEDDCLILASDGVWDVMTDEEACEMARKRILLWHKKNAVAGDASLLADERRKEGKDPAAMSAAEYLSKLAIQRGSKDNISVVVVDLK
| Change | relative binding score [%] |
| --- | --- |
| L112M | 45 |
| L20S | 76.5 |
| R99W | 89.2 |
| S87D | 6.06 |
| R111L | 21.2 |
| Q7F | 69.7 |
| D65T | 62.3 |
| A35I | -5.3 |
| L82Q | 3.31 |
| N165F | -10 |
| L8P | 14.1 |
| R88I | 78.1 |
| G107I | -6.91 |
| N149S | 66.6 |
| L169V | -8.64 |
| L28V | 66.7 |
| D97P | 15.1 |
| Q19M | 52.5 |
| R24D | 18.4 |

Block 3
Target: TAR DNA-binding protein 43, full length, His tag (TARDBP, Homo sapiens, UniProt Q13148, residues 1-414)
Technique: RNA Bind-n-Seq
Molecule type: RNA
Matrix: in vitro
Concentration: 20 nM
Setting: 6-mer, flanks averaged, single round
Added: 150 mM KCl
Baseline: input library
Direction: higher = stronger binding
| Oligonucleotide | 6-mer enrichment (R) |
| --- | --- |
| AAACCA | 0.618 |
| GUGAUU | 0.8 |
| GAGGGU | 4.45 |
| CCUAAA | 0.605 |
| ACAGGU | 0.868 |
| CUUCUG | 0.588 |
| CAGUCA | 0.622 |
| AUAAGA | 0.828 |
| GUCUAA | 0.641 |
| UAUCAA | 0.572 |
| GUGCCG | 1.38 |
| UGACUG | 0.898 |
| GCUCCU | 0.633 |
| UGUCUA | 0.609 |
| AAAGAA | 0.743 |
| CUGUUA | 0.615 |
| AUCGGU | 0.725 |

Block 4
Target: CCNA1, cyclin fold, Cln2 fusion (human)
Technique: yeast growth competition, sequencing
Matrix: yeast
Setting: weak parent motif
Baseline: not given
Direction: higher = stronger binding
Starting sequence: NPAT docking peptide (human); PCHRRVLCFDSTT
| Change | normalised enrichment score |
| --- | --- |
| PCHRRALCFDSTT [V6A] | 0.271 |
| PCHRAVACFDSTT [R5A L7A] | 0.12 |
| PCHRRVLCFDATT [S11A] | -0.0574 |
| PCHRRVACFDSTT [L7A] | 0.0311 |
| PCHRRVLCADSTT [F9A] | 0.0674 |
| PCHRRVLCFDSAT [T12A] | 0.376 |
| PCHRKVLCLDSTT [R5K F9L] | 0.266 |
| PCARRVLCFDSTT [H3A] | 0.342 |
| PCHRKVLCFDSTT [R5K] | 0.268 |
| PCHARVLCFDSTT [R4A] | 0.223 |

Block 5
Target: Histone acetyltransferase KAT6A, winged helix 1, GST fusion (KAT6A, Homo sapiens, UniProt Q92794, residues 1-85)
Technique: protein binding microarray
Molecule type: double-stranded DNA, one strand shown
Matrix: in vitro
Concentration: not given
Setting: 8-mer, flanks averaged, mean of 2 arrays, mostly near background
Baseline: not given
Direction: higher = stronger binding
Residues (chain): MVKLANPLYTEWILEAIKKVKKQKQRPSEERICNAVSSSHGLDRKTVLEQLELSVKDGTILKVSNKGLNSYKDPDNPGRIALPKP
| Oligonucleotide | E-score |
| --- | --- |
| GGCCGCAA | 0.262 |
| CGTAGGAA | 0.0477 |
| TATTCCGA | 0.0192 |
| GACCGTTA | 0.127 |
| TATTTCAA | -0.231 |
| AGATGAGC | -0.126 |
| ACGACCCA | -0.32 |
| AGTCGGTC | 0.082 |
| GATTACCA | 0.0841 |
| CGTACCAC | 0.0907 |
| ATCCTTTA | -0.21 |
| ACTCATGC | -0.0843 |
| CCGGGGCC | 0.209 |
| CATCAGGG | -0.112 |
| CGGATGTA | 0.145 |
| CATTGCCC | -0.0774 |
| GACGGCTA | 0.376 |
| GTCAAGGA | -0.137 |
| AGGGCAGA | -0.176 |
| AGTTAGAA | -0.0777 |
| GCTTCAAC | 0.0473 |
| AGCCTAAC | 0.0799 |
| TAGAGGCA | -0.224 |
| ACTGACGC | 0.169 |

Block 6
Target: Hepatocyte nuclear factor 3-beta, forkhead domain (FOXA2, Homo sapiens, UniProt Q9Y261, residues 142-269)
Technique: protein-binding microarray
Molecule type: double-stranded DNA, one strand shown
Matrix: in vitro
Concentration: not given
Setting: k-mer, scored over probes, only values ≥0.25
Direction: higher = stronger binding
Construct (chain): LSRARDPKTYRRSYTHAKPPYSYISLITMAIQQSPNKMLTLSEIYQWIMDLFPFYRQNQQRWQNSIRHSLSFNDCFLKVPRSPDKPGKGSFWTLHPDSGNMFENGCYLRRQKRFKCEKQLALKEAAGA
| Oligonucleotide | E-score |
| --- | --- |
| ATACTATC | 0.261 |
| TACATGTA | 0.344 |
| GTTGGTAA | 0.258 |
| ATATGGTC | 0.296 |
| TCTGATAA | 0.285 |
| TATGACAA | 0.277 |
| CTGTATAC | 0.379 |
| TAGAATAA | 0.303 |
| ATACCCAT | 0.26 |
| ATAAAATA | 0.332 |
| ATGTTTGA | 0.29 |
| ATCTATCA | 0.252 |
| ACATAACA | 0.309 |
| AATTGTTC | 0.268 |
| TATGCATA | 0.262 |
| AATTTAAT | 0.263 |
| AAAATAAC | 0.251 |

Block 7
Target: OGT, full length, His-tagged (human)
Technique: phage display, sequencing
Matrix: in vitro
Concentration: 1 µg OGT
Setting: single substitutions, 15-mer displayed peptide, unchanged parent 19.6
Baseline: input library
Direction: higher = stronger binding
Starting sequence: peptide; TAPFYPPAYQIQVFK
| Change | fold enrichment |
| --- | --- |
| TAVFYPPAYQIQVFK [P3V] | 20 fold |
| TAPFYPPLYQIQVFK [A8L] | 17.3 fold |
| TAPFTPPAYQIQVFK [Y5T] | 0.987 fold |
| TAPFYPPAWQIQVFK [Y9W] | 0.641 fold |
| TAPFYPPGYQIQVFK [A8G] | 1.06 fold |
| NAPFYPPAYQIQVFK [T1N] | 22.9 fold |
| TAPFYPPAMQIQVFK [Y9M] | 1.57 fold |
| WAPFYPPAYQIQVFK [T1W] | 19.7 fold |
| TAPFYPPAHQIQVFK [Y9H] | 0.449 fold |
| TAPFSPPAYQIQVFK [Y5S] | 1.1 fold |
| TAPFYPPAYQWQVFK [I11W] | 0.939 fold |
| TAPFYPPAYQIRVFK [Q12R] | 12.3 fold |
| TAPTYPPAYQIQVFK [F4T] | 11.2 fold |
| TAPFYPPAYQKQVFK [I11K] | 0.545 fold |
| TAPFYPPANQIQVFK [Y9N] | 0.627 fold |
| TAPFYPEAYQIQVFK [P7E] | 1.65 fold |
| TAPFYPPAYQIQVFD [K15D] | 2.49 fold |
| TAPFGPPAYQIQVFK [Y5G] | 1.14 fold |
| TAPFYPPAYQIQVFM [K15M] | 7.81 fold |
| TAPFYPPAYQMQVFK [I11M] | 1.1 fold |
| TAPFVPPAYQIQVFK [Y5V] | 0.776 fold |
| TAPFYPPAYQIQVFE [K15E] | 2.62 fold |
